Results collected from several papers.
Each numbered part is a random draw from the data of one study; scales do not carry over between parts.

Sample 1
Target: Sal-like protein 4, full length isoform B (SALL4, Homo sapiens, UniProt Q9UJQ4-2, residues 1-616)
Technique: universal PBM
Form: double-stranded DNA, one strand shown
Sample: in vitro
Concentration: not given
Setting: 8-mer, flanks averaged, mean of replicates
Reading: higher = stronger binding
Strand	E-score
CTCCATCC	-0.132
TCGCCGCA	-0.143
GCCAGACA	-0.0698
CTTTAGTC	0.027
AGGCTCAC	-0.246
CGTTTTAG	0.0615
ATTAAGGA	0.214
AACAAAAC	0.21
AAAATCGT	0.199
CCCGTCTA	-0.0992
GGCCCGCA	-0.194
AGTCGGAG	-0.247
CACAGATC	-0.149
GCCGCCCA	-0.448
AATACCAT	0.248
ACAAATGT	0.281
GAGGTGTA	-0.0973
CGGTGTGC	-0.223
ACCAGCGT	-0.133
GTTGTAGA	0.206
CGCGCGAC	-0.285

Sample 2
Target: RNA binding protein fox-1 homolog 2, RRM domain, GST-SBP tag (RBFOX2, Homo sapiens, UniProt O43251-10, residues 100-194)
Technique: RNA Bind-n-Seq
Form: RNA
Sample: in vitro
Concentration: 365 nM
Setting: natural RNA segment, single round, ends assumed
Relative to: no-protein control
Reading: higher = stronger binding
Shared flanks, not repeated: GGGAGUUCUACAGUCCGACGAUC … UGGAAUUCUCGGGUGCCAA
Residues (chain): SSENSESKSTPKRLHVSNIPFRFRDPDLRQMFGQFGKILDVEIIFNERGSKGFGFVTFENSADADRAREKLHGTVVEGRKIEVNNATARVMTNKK
Strand	RBNS enrichment (R)
UAAAUCAGAGAUUAUUCAACAGAGAGGGAGAAAGGAGGAGACAGAGGGAGGACCUGUUGUGUUCCAGCCAUUCUGGUAUUCCUUUAUGUAUCUAAUUUCAUUCAAACCUC	0.346
AGCCUGGCCUGCCCAGCCCUGGUCAUCCAGCUGUACUGGCCCCUGGGGGGCCCCUUUGGGAGCAGGCCUGUGUAUCAGGUGACUUCUGUUGACCACUCUCUGAAUAGGCU	0.243
UGUGAUUUUGCCAAAGUUGUAGCUAAAUAUUUAUACACUUGUCUUGAAUUUUUUUCAGAUCCACUUAAAAUAUUUAGAAAAACAAGUUUUAUUCCUUAUGUGUCUUAUAA	0.555
AGUGUGGAAAGUCUACAGUGCAGAAAGGCUUGAACCUGCCAGCUGAUUUGAAAUACUUUCCCCUGCGCAGGGCCGUAUGCAUCCUGCCAAGCUGCGUUAUAUUCUGUACU	0.555
UGUGUUUUGUUUUUUACAAUACACAGUUCAGACAACAUCUUUUUACAGAUUUUAAAGCUUCAUUUAAAAAACAUAUAUCCAAAUGCAGGAAGCAAAGAAAAUACAGGAAA	0.375
UGCCUGCACAUUUAGUUAAACUGGGCUCAGCAUGCUUGUCCUCAAAAUGUCCAUCCUGGUCACAGCACACAAGAUGGCUAUUGGUCUGCUUUUACCCUACCCUGUACUAU	4.44
UAAAUUGUAAGAUUUUUACUGUAUAUUGAAGCUUAGUGUGAUUCAAUAAAUUGCUUGUAAUUUAAAAACUAUUUAAUAUUCAAAAUAAAUAUAGUUAUAUAUUUAUAAUA	1.71
AGGACUCUGCGGAUCAGUGCUACAGGAGUACAUCUGCCCUGCCACAUGACUCCAGAAGUCUCUGACCCCAUUUGUUUUUAAUGGCAUCAGCCAAUGAGUUAUCACCCUUU	0.374
UUGGUGGGGUUCACUGCUCUGUUGUCCUGCUCUCUAACCACAGACAGGUAAGGAUUACCUUCUCUAGUGGUUCUUGCGAUUUGUCUGCCUAGGUGUGCUCCAGGUUGCCU	0.789
AGAGCUGGGUCUGCAAUAGCUAGUCUAAAAACUACUUGUGUGUCAGUCCUCUGGUUAUAGUAUAUAAGAGCCUGAGGAGGUCUGGCAAGAUAGAUGGUGUAUUAUUUAUG	2.56
UGAGUAAUGCAUUUGAGCUGUCCCAGGCUCUGUCUCCUCAGCUCAUUUCCUACUCUUUUUCUCUAUAUAACUCAUUCUAUUAAAUACAUUGCACCAAAGAGAUAUGGAGA	0.473
UUUCCUUCUCGUUCCUAUUCUCCGUCCUCCACAUGCAGUCCUUUGCUCAGGAAGUCUUUGGGGAAACUAAUGACCUGCAAAUUUGAAGUGGGUGACUGGCUUGGUGGCUU	0.409

Sample 3
Target: TAR DNA-binding protein 43, full length, His tag (TARDBP, Homo sapiens, UniProt Q13148, residues 1-414)
Technique: RNA Bind-n-Seq
Form: RNA
Sample: in vitro
Concentration: 20 nM
Setting: 6-mer, flanks averaged, single round
With: 150 mM LiCl
Relative to: input library
Reading: higher = stronger binding
Strand	6-mer enrichment (R)
UCACGC	0.851
UGGCCC	1.13
GUAUAG	1.04
GGCCUA	0.942
UAGGCA	0.907
UCAAUG	0.901
CACCAA	0.946
GUAGGC	1.03
CGAUGC	0.868
GUGGUC	1.11
ACAACG	0.803
GCUAGA	0.913
GACCCA	0.923
GCAAUU	0.926
UGUGCU	1.22
CAUCUC	0.839
UAAGAU	0.861
CUCGUG	0.918
GGGUAC	1.02
GACUGG	1.06
CUCCGU	0.936

Sample 4
Target: Fragile X messenger ribonucleoprotein 1, C-terminal low-complexity region (Fmr1, Mus musculus, UniProt P35922)
Technique: RNA Bind-n-Seq
Form: RNA
Sample: in vitro
Concentration: 200 nM
Setting: whole 134-nt RNA, ends assumed
With: 150 mM LiCl
Relative to: input library
Reading: higher = stronger binding
All molecules: 7-deaza-guanosine replaces G
Shared flanks, not repeated: GGGAGUUCUACAGUCCGACGAUC … UGGAAUUCUCGGGUGUCAAGG
Strand	log2 enrichment
UCCUGUGCUACACAUCGUAUGUACCGAAUCGGGGUUUUUGGGGUUUUUGGGGUUUGGGGAAAGUAUUAUGUUACGCCGUUCGGAUCUGCA	-0.504
CAAGUCCUGUGCUACACAUCGUAUGUACCGAAUCGGGGUUUGGGUUUGGUUUGGGGAAAGUAUUAUGUUACGCCGUUCGGAUCUGCACUU	-1.23
AAGUCCUGUGCUACACAUCGUAUGUACCGAAUCGGGGUUUGGUUUGGGGUUUGGGGAAAGUAUUAUGUUACGCCGUUCGGAUCUGCACUU	-1.85
UGGCCCUGGUGACAUGCGGGGAGGAAGAGGUGGCCUCAUGGAUCGUGGUGGUCCCGGUGGAAUGUUCAGAGGUGGCCGUGGUGGAGACAG	-0.65
AGUCCUGUGCUACACAUCGUAUGUACCGAAUCGGUUUUUUGGUUUUUUGGUUUUUUGGAAAGUAUUAUGUUACGCCGUUCGGAUCUGCAC	-1.99
UAACUUUAGAGGAGGAUCUGAUGGAUAUGGCAGUGGACGUGGAUUUGGGGAUGGCUAUAAUGGGUAUCGAGGAGGACCUGGAGGUGGCAA	0.144
UUUGAAGGUGAUUUCUGGCCCAAUGUGUUAGAAGAGAGCAUUAAGGAACUAGAACAAGAAGAAGAGGAGAGGAAAAAGGAAGAGAGCACU	-2.21
CAAGUCCUGUGCUACACAUCGUAUGUACCGAAUCGGGAAAAAGGGUUUGGGAGGGAAAGUAUUAUGUUACGCCGUUCGGAUCUGCACUUC	-1.13
AAGUCCUGUGCUACACAUCGUAUGUACCGAAUCGGGUUUUGGGUUUUGGGUUUUGGGAAAGUAUUAUGUUACGCCGUUCGGAUCUGCACU	-1.02
GCAGGAAGUAAAAACAAAUGGAAAUGCUUCGGAUAGUGGGAGGGGUGGGGGUUGCUAAGGAAAGGGUGGGAUGGGAGUGGGUAAAGAGUU	1.21
UAACUUUAGAGGAGGAUCUGAUGGAUAUGGCAGUCGACGUGGAUUUGGGGAUGGCUAUAAUGGGUAUGGAGGAGGACCUGGAGGUGGCAA	-0.211

Sample 5
Target: Interferon regulatory factor 3, full length, phosphomimetic (IRF3, Homo sapiens, UniProt Q14653, residues 1-427, S386D/S396D/S398D/S402D/T404D/S405D)
Technique: protein-binding microarray
Form: double-stranded DNA, one strand shown
Sample: in vitro
Concentration: 2540 nM top
Setting: 60-bp whole probe
With: salmon DNA 0.4 mg/ml
Relative to: random background probes
Reading: higher = stronger binding
Shared flanks, not repeated: GCCTAGCAC … GTCTTGATTCGCTTGACGCTGCTG
Residues (chain): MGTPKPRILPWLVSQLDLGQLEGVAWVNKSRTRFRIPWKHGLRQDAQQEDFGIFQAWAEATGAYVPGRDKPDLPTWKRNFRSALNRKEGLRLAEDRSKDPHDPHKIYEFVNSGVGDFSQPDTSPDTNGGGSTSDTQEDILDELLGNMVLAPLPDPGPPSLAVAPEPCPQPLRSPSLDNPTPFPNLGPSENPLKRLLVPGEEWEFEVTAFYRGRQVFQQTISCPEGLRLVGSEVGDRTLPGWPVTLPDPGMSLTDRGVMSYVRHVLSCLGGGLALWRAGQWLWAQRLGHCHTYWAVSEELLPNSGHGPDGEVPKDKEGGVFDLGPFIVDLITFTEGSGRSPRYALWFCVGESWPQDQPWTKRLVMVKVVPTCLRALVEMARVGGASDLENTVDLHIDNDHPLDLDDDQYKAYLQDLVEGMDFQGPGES
Strand	fitted relative affinity [z-score]
GACGGGATCGGTTTCGGGACGTGCTAG	4.68
TTAGGACGGGGTTTCGGTTAGTGCTAG	3.13
TTAGGTCTCGGCTTCGGTTAGTGCTAG	-0.275
GACGGTTCCCTTTTCCAGACGTGCTAG	6.34
TTAGAATTCAGTTTCGATTAGTGCTAG	5.09
GACGGTTTCCTTTCCCTGCCGTGCTAG	10.1
TCACATTTCCAATTACCACTGTGCTAG	3.21
TATGCTTTCTTTAACTCATTGTGCTAG	1.18
TCAATGGTCCTGGTTTCAACTGTGCTA	-0.107
CACGGTTTCGGGTTTCGGGACGTGCTA	5.34
GCCGATTTCAGTTCCGAGACGTGCTAG	3.55
TTAGGTTTCCGTTTCGGTTAGTGCTAG	10.6
TTAGATATCTGTATCGATTAGTGCTAG	1.08
TTAGGTTTCGGGTCTCGGTTAGTGCTA	5.86
GACGATTACAGACTGGAGACGTGCTAG	0.0168
TTAGGTATCGTTCTCCTTTAGTGCTAG	4.49
TTAGGTATCCTTCTCCTCTAGTGCTAG	7.2

Some of these lines once more (sample 4):
Strand	log2 enrichment
UCCUGUGCUACACAUCGUAUGUACCGAAUCGGGGUUUUUGGGGUUUUUGGGGUUUGGGGAAAGUAUUAUGUUACGCCGUUCGGAUCUGCA	-0.504
UAACUUUAGAGGAGGAUCUGAUGGAUAUGGCAGUCGACGUGGAUUUGGGGAUGGCUAUAAUGGGUAUGGAGGAGGACCUGGAGGUGGCAA	-0.211
GCAGGAAGUAAAAACAAAUGGAAAUGCUUCGGAUAGUGGGAGGGGUGGGGGUUGCUAAGGAAAGGGUGGGAUGGGAGUGGGUAAAGAGUU	1.21
AAGUCCUGUGCUACACAUCGUAUGUACCGAAUCGGGGUUUGGUUUGGGGUUUGGGGAAAGUAUUAUGUUACGCCGUUCGGAUCUGCACUU	-1.85
UGGCCCUGGUGACAUGCGGGGAGGAAGAGGUGGCCUCAUGGAUCGUGGUGGUCCCGGUGGAAUGUUCAGAGGUGGCCGUGGUGGAGACAG	-0.65
UUUGAAGGUGAUUUCUGGCCCAAUGUGUUAGAAGAGAGCAUUAAGGAACUAGAACAAGAAGAAGAGGAGAGGAAAAAGGAAGAGAGCACU	-2.21
UAACUUUAGAGGAGGAUCUGAUGGAUAUGGCAGUGGACGUGGAUUUGGGGAUGGCUAUAAUGGGUAUCGAGGAGGACCUGGAGGUGGCAA	0.144
AAGUCCUGUGCUACACAUCGUAUGUACCGAAUCGGGUUUUGGGUUUUGGGUUUUGGGAAAGUAUUAUGUUACGCCGUUCGGAUCUGCACU	-1.02
CAAGUCCUGUGCUACACAUCGUAUGUACCGAAUCGGGGUUUGGGUUUGGUUUGGGGAAAGUAUUAUGUUACGCCGUUCGGAUCUGCACUU	-1.23
CAAGUCCUGUGCUACACAUCGUAUGUACCGAAUCGGGAAAAAGGGUUUGGGAGGGAAAGUAUUAUGUUACGCCGUUCGGAUCUGCACUUC	-1.13
AGUCCUGUGCUACACAUCGUAUGUACCGAAUCGGUUUUUUGGUUUUUUGGUUUUUUGGAAAGUAUUAUGUUACGCCGUUCGGAUCUGCAC	-1.99
